# Assay results of several laboratories.
# A part holds a random share of what one study measured.
# Sequence of UniProt P31749 (whole entry, looked up): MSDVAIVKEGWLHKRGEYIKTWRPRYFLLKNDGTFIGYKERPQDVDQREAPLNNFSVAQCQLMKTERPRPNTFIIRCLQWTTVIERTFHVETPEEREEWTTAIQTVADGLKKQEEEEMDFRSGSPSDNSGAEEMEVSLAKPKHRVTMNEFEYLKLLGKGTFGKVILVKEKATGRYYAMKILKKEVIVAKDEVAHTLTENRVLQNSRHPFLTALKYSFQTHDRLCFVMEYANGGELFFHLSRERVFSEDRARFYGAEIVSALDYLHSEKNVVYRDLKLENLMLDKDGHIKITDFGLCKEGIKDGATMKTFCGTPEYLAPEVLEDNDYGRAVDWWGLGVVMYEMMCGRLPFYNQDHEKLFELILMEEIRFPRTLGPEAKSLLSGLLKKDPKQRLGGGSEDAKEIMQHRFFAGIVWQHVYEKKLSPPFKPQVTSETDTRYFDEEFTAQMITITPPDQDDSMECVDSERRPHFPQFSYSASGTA
# Sequence of UniProt P11229 (whole entry, looked up): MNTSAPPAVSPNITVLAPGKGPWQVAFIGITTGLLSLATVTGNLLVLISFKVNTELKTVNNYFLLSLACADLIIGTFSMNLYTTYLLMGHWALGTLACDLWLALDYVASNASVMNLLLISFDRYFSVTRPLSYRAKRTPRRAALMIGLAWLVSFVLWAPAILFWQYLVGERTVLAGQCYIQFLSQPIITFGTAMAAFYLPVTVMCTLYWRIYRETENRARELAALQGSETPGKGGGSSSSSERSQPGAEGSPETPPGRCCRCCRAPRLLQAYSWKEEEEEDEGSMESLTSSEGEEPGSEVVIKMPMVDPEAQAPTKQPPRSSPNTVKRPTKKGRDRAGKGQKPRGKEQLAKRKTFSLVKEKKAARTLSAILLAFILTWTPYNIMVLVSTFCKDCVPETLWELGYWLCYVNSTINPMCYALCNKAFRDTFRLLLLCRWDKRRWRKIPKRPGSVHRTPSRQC
# Sequence of UniProt P31152 (whole entry, looked up): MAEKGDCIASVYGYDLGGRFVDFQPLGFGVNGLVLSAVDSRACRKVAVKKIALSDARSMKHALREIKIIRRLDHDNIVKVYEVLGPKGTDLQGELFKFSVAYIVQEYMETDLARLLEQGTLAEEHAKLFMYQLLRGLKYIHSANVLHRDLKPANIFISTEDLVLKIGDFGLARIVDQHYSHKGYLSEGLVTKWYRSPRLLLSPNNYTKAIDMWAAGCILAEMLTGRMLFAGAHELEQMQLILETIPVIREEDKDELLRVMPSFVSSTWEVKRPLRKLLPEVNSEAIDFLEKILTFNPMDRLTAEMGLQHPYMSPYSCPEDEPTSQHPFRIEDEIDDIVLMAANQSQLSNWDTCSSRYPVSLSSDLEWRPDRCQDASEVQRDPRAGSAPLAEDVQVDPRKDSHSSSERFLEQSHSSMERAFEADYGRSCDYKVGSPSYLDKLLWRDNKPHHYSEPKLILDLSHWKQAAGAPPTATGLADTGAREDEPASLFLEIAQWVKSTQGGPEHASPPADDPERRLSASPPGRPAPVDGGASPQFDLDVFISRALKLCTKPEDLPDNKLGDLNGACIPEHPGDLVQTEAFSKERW

# Sample 1
# Compound: Cn1cncc1[C@@](O)(COc1ccc(C#N)cc1-c1ccc(OC(F)(F)F)cc1)c1ccc(C#N)cc1
# Method: competition with immobilised ligand
# Tested at: 1 µM
target,observed,remaining binding [%]
"Rhodopsin kinase GRK1 (GRK1, Homo sapiens, UniProt Q15835)",cell-free assay,100
"Receptor-type tyrosine-protein kinase FLT3 (FLT3, Homo sapiens, UniProt P36888, R834Q)",cell-free assay,100
"Calcium-dependent protein kinase 1 (CDPK1, Plasmodium falciparum, UniProt P62344)",cell-free assay,75
"Fibroblast growth factor receptor 4 (FGFR4, Homo sapiens, UniProt P22455)",cell-free assay,100
"Mitogen-activated protein kinase 6 (MAPK6, Homo sapiens, UniProt Q16659)",cell-free assay,93
"Mitogen-activated protein kinase 4 (MAPK4, Homo sapiens, UniProt P31152)",cell-free assay,90
"Serine/threonine-protein kinase WNK1 (WNK1, Homo sapiens, UniProt Q9H4A3)",cell-free assay,100
"Tyrosine-protein kinase Tec (TEC, Homo sapiens, UniProt P42680)",binding,100
"Epithelial discoidin domain-containing receptor 1 (DDR1, Homo sapiens, UniProt Q08345)",cell-free assay,100
"Transient receptor potential cation channel subfamily M member 6 (TRPM6, Homo sapiens, UniProt Q9BX84)",cell-free assay,100
"Cyclin-dependent kinase 9 (CDK9, Homo sapiens, UniProt P50750)",cell-free assay,100
"Ephrin type-B receptor 3 (EPHB3, Homo sapiens, UniProt P54753)",cell-free assay,6
"Cyclin-dependent kinase 4 (CDK4, Homo sapiens, UniProt P11802)",cell-free assay,100
"Serine/threonine-protein kinase PAK 2 (PAK2, Homo sapiens, UniProt Q13177)",cell-free assay,96
"RAC-alpha serine/threonine-protein kinase (AKT1, Homo sapiens, UniProt P31749)",cell-free assay,100
"Inhibitor of nuclear factor kappa-B kinase subunit beta (IKBKB, Homo sapiens, UniProt O14920)",cell-free assay,100
"Ephrin type-A receptor 4 (EPHA4, Homo sapiens, UniProt P54764)",cell-free assay,12
"Serine/threonine-protein kinase TAO1 (TAOK1, Homo sapiens, UniProt Q7L7X3)",cell-free assay,100
"Rho-associated protein kinase 1 (ROCK1, Homo sapiens, UniProt Q13464)",cell-free assay,100

# Sample 2
# Target: DNA polymerase theta, ATPase domain (POLQ, Homo sapiens, UniProt O75417)
# Sequence of UniProt O75417 (whole entry, unmodified, looked up): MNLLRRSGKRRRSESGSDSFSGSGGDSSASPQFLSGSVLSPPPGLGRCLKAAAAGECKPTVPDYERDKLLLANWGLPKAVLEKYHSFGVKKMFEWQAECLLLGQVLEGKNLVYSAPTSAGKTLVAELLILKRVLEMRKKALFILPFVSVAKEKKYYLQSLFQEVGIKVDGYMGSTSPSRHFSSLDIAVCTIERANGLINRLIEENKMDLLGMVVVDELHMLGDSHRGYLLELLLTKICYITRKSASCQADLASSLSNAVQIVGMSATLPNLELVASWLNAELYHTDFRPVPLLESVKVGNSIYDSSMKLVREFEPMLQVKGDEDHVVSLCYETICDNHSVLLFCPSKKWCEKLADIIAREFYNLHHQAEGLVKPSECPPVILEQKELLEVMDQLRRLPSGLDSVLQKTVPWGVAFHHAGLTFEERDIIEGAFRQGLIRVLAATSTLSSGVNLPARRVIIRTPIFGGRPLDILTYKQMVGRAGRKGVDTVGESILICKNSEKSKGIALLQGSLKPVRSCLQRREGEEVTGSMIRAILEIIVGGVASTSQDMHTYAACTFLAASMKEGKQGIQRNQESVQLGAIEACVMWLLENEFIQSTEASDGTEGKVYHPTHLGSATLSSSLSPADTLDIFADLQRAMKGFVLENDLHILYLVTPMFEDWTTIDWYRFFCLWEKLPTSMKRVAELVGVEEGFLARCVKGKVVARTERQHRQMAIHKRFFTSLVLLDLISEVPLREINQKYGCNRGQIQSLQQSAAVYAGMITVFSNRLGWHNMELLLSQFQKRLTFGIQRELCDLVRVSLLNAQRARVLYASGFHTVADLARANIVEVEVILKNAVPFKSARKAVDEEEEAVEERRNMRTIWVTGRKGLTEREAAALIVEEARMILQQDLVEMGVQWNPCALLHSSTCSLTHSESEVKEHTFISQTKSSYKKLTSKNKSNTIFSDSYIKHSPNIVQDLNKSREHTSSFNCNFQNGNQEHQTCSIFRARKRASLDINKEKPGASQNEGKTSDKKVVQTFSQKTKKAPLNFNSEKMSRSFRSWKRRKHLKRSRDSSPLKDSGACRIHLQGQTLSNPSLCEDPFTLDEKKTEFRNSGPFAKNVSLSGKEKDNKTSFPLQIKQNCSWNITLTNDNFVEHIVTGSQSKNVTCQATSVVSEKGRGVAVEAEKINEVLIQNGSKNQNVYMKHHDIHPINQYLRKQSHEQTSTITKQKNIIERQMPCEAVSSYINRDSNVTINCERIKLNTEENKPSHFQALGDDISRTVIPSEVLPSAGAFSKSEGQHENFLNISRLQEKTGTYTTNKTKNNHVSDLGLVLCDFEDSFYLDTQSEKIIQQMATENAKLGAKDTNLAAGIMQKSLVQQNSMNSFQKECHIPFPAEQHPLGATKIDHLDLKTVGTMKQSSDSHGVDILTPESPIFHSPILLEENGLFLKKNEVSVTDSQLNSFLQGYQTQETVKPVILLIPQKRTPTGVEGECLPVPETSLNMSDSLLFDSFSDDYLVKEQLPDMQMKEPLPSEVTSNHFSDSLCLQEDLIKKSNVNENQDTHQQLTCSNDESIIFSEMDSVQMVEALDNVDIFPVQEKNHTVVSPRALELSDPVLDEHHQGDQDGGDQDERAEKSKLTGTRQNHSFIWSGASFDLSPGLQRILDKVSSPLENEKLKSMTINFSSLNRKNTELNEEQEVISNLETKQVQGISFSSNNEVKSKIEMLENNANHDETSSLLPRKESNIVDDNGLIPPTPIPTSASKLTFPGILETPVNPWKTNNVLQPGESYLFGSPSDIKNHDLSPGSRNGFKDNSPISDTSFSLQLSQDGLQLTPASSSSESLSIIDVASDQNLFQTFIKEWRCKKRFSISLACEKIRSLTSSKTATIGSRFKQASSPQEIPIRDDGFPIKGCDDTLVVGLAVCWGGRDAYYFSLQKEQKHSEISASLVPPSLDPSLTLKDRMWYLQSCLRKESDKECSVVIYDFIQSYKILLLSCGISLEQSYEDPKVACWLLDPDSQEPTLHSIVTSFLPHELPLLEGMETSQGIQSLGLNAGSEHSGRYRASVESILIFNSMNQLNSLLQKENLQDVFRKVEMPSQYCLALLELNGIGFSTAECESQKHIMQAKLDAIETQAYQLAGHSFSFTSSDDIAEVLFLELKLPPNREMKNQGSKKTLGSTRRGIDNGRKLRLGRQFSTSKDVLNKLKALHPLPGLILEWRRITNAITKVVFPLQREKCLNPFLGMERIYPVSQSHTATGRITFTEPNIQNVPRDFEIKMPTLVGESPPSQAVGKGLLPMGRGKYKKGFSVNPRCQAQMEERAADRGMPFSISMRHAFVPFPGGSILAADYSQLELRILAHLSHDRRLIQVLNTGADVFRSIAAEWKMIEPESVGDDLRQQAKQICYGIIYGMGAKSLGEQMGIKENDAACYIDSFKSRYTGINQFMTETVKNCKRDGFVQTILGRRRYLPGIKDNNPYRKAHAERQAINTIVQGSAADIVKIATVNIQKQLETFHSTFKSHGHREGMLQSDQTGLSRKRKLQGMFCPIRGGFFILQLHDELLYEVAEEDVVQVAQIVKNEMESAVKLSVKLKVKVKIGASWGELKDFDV
# Observed: enzyme activity
# Mode: inhibitor
# Tested at: 77 µM
# Baseline: untreated
Structure (SMILES),remaining activity
CC(=O)NCCc1c[nH]c2ccccc12,86.9%
CC(=O)NBr,97.6%
O=S(=O)(CC1CS1)c1ccc(Oc2ccccc2)cc1 (stereo not shown),92.8%

# Sample 3
# Target: CRBN/Zinc finger protein Helios (Homo sapiens, UniProt Q96SW2+Q9UKS7)
# Sequence of UniProt Q96SW2 (whole entry, looked up): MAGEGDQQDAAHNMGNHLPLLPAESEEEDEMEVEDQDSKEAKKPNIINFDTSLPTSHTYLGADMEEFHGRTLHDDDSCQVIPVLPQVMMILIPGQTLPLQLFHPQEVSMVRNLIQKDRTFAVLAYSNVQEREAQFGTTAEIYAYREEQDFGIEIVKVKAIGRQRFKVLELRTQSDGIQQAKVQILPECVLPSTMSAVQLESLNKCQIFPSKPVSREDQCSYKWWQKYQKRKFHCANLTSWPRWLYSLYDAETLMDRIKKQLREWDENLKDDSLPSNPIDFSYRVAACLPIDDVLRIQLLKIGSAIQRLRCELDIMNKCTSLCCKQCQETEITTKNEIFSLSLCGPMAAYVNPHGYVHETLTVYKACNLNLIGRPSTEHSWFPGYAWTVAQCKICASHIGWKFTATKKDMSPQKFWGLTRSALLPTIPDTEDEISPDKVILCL
# Sequence of UniProt Q9UKS7 (whole entry, looked up): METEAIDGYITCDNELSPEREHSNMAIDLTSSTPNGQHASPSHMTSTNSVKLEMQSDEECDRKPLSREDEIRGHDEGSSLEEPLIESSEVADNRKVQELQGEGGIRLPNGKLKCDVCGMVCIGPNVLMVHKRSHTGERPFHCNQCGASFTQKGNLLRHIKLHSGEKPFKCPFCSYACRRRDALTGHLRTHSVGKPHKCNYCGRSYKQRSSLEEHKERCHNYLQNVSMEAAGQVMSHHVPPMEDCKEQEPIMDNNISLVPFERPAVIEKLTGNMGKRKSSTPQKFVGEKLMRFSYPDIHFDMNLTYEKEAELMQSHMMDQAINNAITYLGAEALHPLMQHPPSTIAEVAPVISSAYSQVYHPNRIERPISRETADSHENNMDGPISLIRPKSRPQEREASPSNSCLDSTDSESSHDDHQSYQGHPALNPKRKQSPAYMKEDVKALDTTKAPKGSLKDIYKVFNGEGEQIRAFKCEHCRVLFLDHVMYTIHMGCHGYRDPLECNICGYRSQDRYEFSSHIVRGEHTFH
# Mode: degrader
# Method: HiBiT
# Cell line: HEK293
# Tested at: 1.524 nM
Structure (SMILES),protein remaining [%]
O=C1CCC(N2Cc3c(ccc4c3OCC43CCN(Cc4ccccn4)CC3)C2=O)C(=O)N1 (stereo not shown),93
O=C1CCC(N2Cc3c(ccc4c3OCC43CCCN(Cc4ccccc4)CC3)C2=O)C(=O)N1 (stereo not shown),94.8
O=C1CCC(N2Cc3c(ccc4c3OCC43CCN(Cc4ccsc4)CC3)C2=O)C(=O)N1 (stereo not shown),82.1
O=C1CCC(N2Cc3c(ccc4c3OCC43CCN(Cc4ccccc4)C3)C2=O)C(=O)N1 (stereo not shown),91.6
O=C1CCC(N2Cc3c(ccc4c3OCC43CCN(Cc4ccccc4)CC3(F)F)C2=O)C(=O)N1 (stereo not shown),94.3
O=C1CCC(N2Cc3c(ccc4c3OCC43CCN(CC4CCCCC4)CC3)C2=O)C(=O)N1 (stereo not shown),96.4

# Sample 4
# Cell line: Huh-7
# Tested at: 10 µM
# Time: 24 h
Compound,viability
CCOC(=O)CC(SP(=S)(OC)OC)C(=O)OCC (stereo not shown),92.5%
O=C(CCCN1CCC2(CC1)C(=O)NCN2c1ccccc1)c1ccc(F)cc1,68.2%
CCCCOC(=O)c1ccccc1C(=O)OCCCC,97.8%
CN(C)C(=S)SSC(=S)N(C)C,58.4%
N#Cc1nn(-c2c(Cl)cc(C(F)(F)F)cc2Cl)c(N)c1[S+]([O-])C(F)(F)F (stereo not shown),89.6%
CC(NC(C)(C)C)C(=O)c1cccc(Cl)c1 (stereo not shown),101%

# Sample 5
# Compound: CNC(=O)c1ccc(-c2cnn3ccc(C(=O)N(C)c4ccc(Cl)c(C(=O)OC)c4)cc23)cc1
target,observed,mode,IC50 [µM]
"Muscarinic acetylcholine receptor M1 (CHRM1, Homo sapiens, UniProt P11229)",cell-free assay,,> 30
"Sodium-dependent serotonin transporter (SLC6A4, Homo sapiens, UniProt P31645)",cell-free assay,,29.8
"Calcium/calmodulin-dependent protein kinase type 1 (CAMK1, Homo sapiens, UniProt Q14012)",enzyme activity,inhibitor,> 30
"Mitogen-activated protein kinase kinase kinase 2 (MAP3K2, Homo sapiens, UniProt Q9Y2U5)",enzyme activity,inhibitor,> 30
"Adenosine receptor A3 (ADORA3, Homo sapiens, UniProt P0DMS8)",cell-free assay,,> 30
"eIF-2-alpha kinase GCN2 (EIF2AK4, Homo sapiens, UniProt Q9P2K8)",enzyme activity,inhibitor,> 30
"Fibroblast growth factor receptor 3 (FGFR3, Homo sapiens, UniProt P22607)",enzyme activity,inhibitor,> 30
"RAC-alpha serine/threonine-protein kinase (AKT1, Homo sapiens, UniProt P31749)",enzyme activity,inhibitor,> 30
"Insulin-like growth factor 1 receptor (IGF1R, Homo sapiens, UniProt P08069)",enzyme activity,inhibitor,> 30

# For quick reference, copied from above (sample 1):
target,observed,remaining binding [%]
"Receptor-type tyrosine-protein kinase FLT3 (FLT3, Homo sapiens, UniProt P36888, R834Q)",cell-free assay,100
"Calcium-dependent protein kinase 1 (CDPK1, Plasmodium falciparum, UniProt P62344)",cell-free assay,75
"Fibroblast growth factor receptor 4 (FGFR4, Homo sapiens, UniProt P22455)",cell-free assay,100
"Mitogen-activated protein kinase 6 (MAPK6, Homo sapiens, UniProt Q16659)",cell-free assay,93
"Mitogen-activated protein kinase 4 (MAPK4, Homo sapiens, UniProt P31152)",cell-free assay,90
"Serine/threonine-protein kinase WNK1 (WNK1, Homo sapiens, UniProt Q9H4A3)",cell-free assay,100
